Measurements gathered from unrelated publications.
Parts stem from different laboratories: compare values within a part only. Substitutions count along the parent as printed.

Block 1 — target: UBE2D3 UBC core domain (UniProt P61077); method: yeast two-hybrid; sample: yeast; setting: mostly zero background; baseline: not given; direction: higher = stronger interaction
B1: CBLL1 RING domain (UniProt Q75N03); chain GEKDDTPVHFCDKCGLPIKIYGRMIPCKHVFCYDCAILHEKKGDKMCPGCSDPVQRIEQCT
B2: ARIH1 RING domain (UniProt Q9Y4X5); chain NTRSSAQDMPCQICYLNYPNSYFTGLECGHKFCMQCWSEYLTTKIMEEGMGQTISCPAHGCDILVDDNTVM
B3: RMND5B RING domain (UniProt Q96G75); chain MKCWYHSVFACPILRQQTSDSNPPIKLICGHVISRDALNKLINGGKLKCPYCPMEQNPADGK
B4: RNF17 RING domain (UniProt Q9BXT8); chain SQPWGAAEIQCTRCGRRVSRSSGHHCELQCGHAFCELCLLMTEECTTIICPDCEVATAVNTRQR
B5: TRIM34 RING domain (UniProt Q9BYJ4); chain ILLNVQEEVTCPICLELLTEPLSLDCGHSLCRACITVSNKEAVTSMGGKSSCPVCGISYSFEHLQA
Residues (chain): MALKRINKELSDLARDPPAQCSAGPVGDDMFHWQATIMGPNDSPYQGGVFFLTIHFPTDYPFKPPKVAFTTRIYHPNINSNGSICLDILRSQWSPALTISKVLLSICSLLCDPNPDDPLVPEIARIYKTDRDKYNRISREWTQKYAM
Molecule	lacZ reporter activity
B1 (CBLL1 RING domain)	0
AAQLLEEKLTCAICLGLYQDPVTLPCGHNFCGACIRDWWDRCGKACPECREPFPDGAELR (TRIM65 RING domain (UniProt Q6PJ69))	0
EDVLSKDAGECAICLEELQQGDTIARLPCLCIYHKGCIDEWFEVNRSCPEHPSD (ZNRF2 RING domain (UniProt Q8NHG8))	15500
B2 (ARIH1 RING domain)	0
B3 (RMND5B RING domain)	10700
B4 (RNF17 RING domain)	0
B5 (TRIM34 RING domain)	0
SNNDLASLFECPVCFDYVLPPILQCQSGHLVCSNCRPKLTCCPTCRGPLGSIRNLA (SIAH1 RING domain (UniProt Q8IUQ4))	2010

Block 2 — effect on: peptide-MHC binding; molecule type: peptide; concentration: concentration not given
Target: HLA class I histocompatibility antigen, A alpha chain, allele A*25:01 (Homo sapiens, UniProt P04439)
Molecule	binding
MVAKYDLLV	inactive
WTDLFDNKV	inactive
KSLTTTMQFK	inactive
QAFEAGIDF	inactive
RMMATKDSF	inactive
SLLHESTLK	inactive
TLPGCLIIL	inactive
KMKDPKMYH	inactive

Block 3 — target: CCNB1, cyclin fold, Cln2 fusion (human); method: yeast growth competition, sequencing; sample: yeast; setting: strong parent motif; baseline: not given; direction: higher = stronger binding
Parent: viral docking peptide; KGVKRKLFAEDSS; partner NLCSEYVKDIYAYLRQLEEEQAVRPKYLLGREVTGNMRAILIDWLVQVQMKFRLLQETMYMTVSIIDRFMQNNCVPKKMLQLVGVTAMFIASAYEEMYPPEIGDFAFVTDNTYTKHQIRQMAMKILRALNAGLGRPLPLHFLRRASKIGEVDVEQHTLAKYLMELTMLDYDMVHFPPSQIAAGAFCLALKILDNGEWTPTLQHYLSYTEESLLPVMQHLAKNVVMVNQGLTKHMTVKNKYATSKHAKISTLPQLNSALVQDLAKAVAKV
Substitution	normalised enrichment score
KGVKRKLFAEHSS [D11H]	1.32
KGVKRKLVAEDSS [F8V]	1.33
KFVKRKLFAEDSS [G2F]	1.47
KGVGRKLFAEDSS [K4G]	0.65
KGVLRKLFAEDSS [K4L]	0.72
KGVKRKLFAHDSS [E10H]	0.553
KGVKRKLFANDSS [E10N]	1.19
KGVKRKLFAEDYS [S12Y]	2.59

Mixed results
Compound	cell line	assay	conditions	quantity	result
O=C(Nc1ccccc1)N1CCc2cc3ccccc3nc21	HEK-293T-ACE2-TMPRSS2	cell count	concentration not given	viability	78%

For quick reference, copied from above (block 2):
Molecule	binding
QAFEAGIDF	inactive
RMMATKDSF	inactive
SLLHESTLK	inactive
